Measured values pooled from the literature.
Compare with care: the assays were run in different laboratories. Several values in a cell are separate wells, animals, samples, runs or records. ± marks the error that the study gave.

Compound | system | setting | scale | tissue uptake
CCN(CC)c1ccc2c(-c3ccccc3C(=O)OCCC[18F])c3ccc(=[N+](CC)CC)cc-3oc2c1 | rat, heart | 60 min |  | 1.32 %ID/g and 1.03 %ID/g
CCNc1cc2[o+]c3cc(NCC)c(C)cc3c(-c3ccccc3C(=O)OCCOCC[18F])c2cc1C | rat, mandibular gland | 30 min |  | 2.01 ± 0.26 %ID/g
COc1ccc(NC(=O)Cn2c(=O)c3ccccc3n(CC(=O)Nc3cc([125I])c(OC)cc3OC)c2=O)cc1 | Wistar rat (normal), thymus | intravenous, 0.5 h |  | 0.1 ± 0.02 %ID/g
COc1cc2ccnc(Cc3ccc(O[11CH3])c(OC)c3)c2cc1OC | Sprague-Dawley rats, fat | intravenous, 0.5 h |  | 0.226 ± 0.026 %ID/g
CCN(CC)c1ccc2c(-c3ccccc3C(=O)OCCOCC[18F])c3ccc(=[N+](CC)CC)cc-3oc2c1 | rat, gut | dose not given, 60 min post injection |  | 1.69 ± 0.42 %ID/g
CN(C)c1ccc(C(=O)NCCCCN2CCN(c3ccccc3O[11CH3])CC2)cc1 | male Sprague Dawley rat, blood | iv, 30 min | baseline: untreated | 0.025 %ID/g
O=C(c1ccc(F)cc1)C1CCN(C2Cc3c(cccc3OCC[18F])CC2O)CC1 (single isomer, unassigned; (-)) | Sprague-Dawley rat, male, hippocampus | 5 min post-injection |  | 0.645 %ID/g
O=C(O)CCCN1CCN2CCN(CC1)CC(=O)[O][Al]([18F])[O]C(=O)C2 | Sprague-Dawley rat, renal pedicle ligation, liver | 60 min |  | 4 ± 0.2 %ID
